Results gathered from unrelated publications.
Each numbered part is a random draw from the data of one study; scales do not carry over between parts. Changes are numbered by the printed parent chain.

Set 1
Target: Prothrombin, mature alpha-thrombin (F2, Homo sapiens, UniProt P00734)
Method: aptamer microarray, sandwich
Form: DNA with 2'F-ANA
Matrix: in vitro
Concentration: 200 nM
Notes: whole 15-mer aptamer, many near background
Added: Cy3 exosite-II aptamer, 400 nM
Direction: higher = stronger binding
Sequence: GGTTGGTGTGGTTGG
Modification | mean fluorescence intensity
2'F-ANA at 3 4 5 7 8 10 12 13 15 | 52.2 a.u.
2'F-ANA at 4 5 6 8 11 13 14 | 56 a.u.
2'F-ANA at 1 4 5 8 10 12 | 50.8 a.u.
2'F-ANA at 4 5 6 14 | 46.5 a.u.
2'F-ANA at 1 2 5 6 7 9 11 12 13 14 | 54.2 a.u.
2'F-ANA at 2 8 11 12 | 765 a.u.
2'F-ANA at 2 4 5 6 7 8 9 11 13 14 | 48.4 a.u.
2'F-ANA at 2 3 4 5 6 7 8 10 13 14 15 | 46.5 a.u.

Set 2
Target: PABPC1L2, full length, GST fusion (mouse, UniProt A0ABA7IW68)
Method: RNAcompete
Form: RNA
Matrix: in vitro
Concentration: 20 nM
Notes: 7-mer, probes averaged, single round
Baseline: mean of 7-mers
Direction: higher = stronger binding
Residues (chain): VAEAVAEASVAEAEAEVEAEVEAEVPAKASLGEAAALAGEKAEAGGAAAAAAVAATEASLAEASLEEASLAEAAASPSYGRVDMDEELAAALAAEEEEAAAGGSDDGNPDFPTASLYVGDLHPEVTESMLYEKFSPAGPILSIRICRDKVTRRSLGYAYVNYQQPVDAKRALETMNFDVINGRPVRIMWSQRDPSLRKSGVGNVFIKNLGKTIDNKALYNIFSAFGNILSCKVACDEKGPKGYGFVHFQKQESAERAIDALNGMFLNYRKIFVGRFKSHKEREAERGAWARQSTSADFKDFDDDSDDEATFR
Sequence | 7-mer Z-score
GCGGUCA | 0.0859
CCAUUAC | -0.302
CGGAGUA | 0.0805
GAACGCA | 0.12
CUACGUU | -0.128
UAUCUCU | -0.271
AUGCUCC | -0.231
UGUCCCG | -0.32

Set 3
Target: OGT, full length, His-tagged (human)
Method: phage display, sequencing
Matrix: in vitro
Concentration: 1 µg OGT
Notes: single substitutions, 15-mer displayed peptide, unchanged parent 19.6
Baseline: input library
Direction: higher = stronger binding
Parent: peptide; TAPFYPPAYQIQVFK
Variant | fold enrichment [fold]
TAPFTPPAYQIQVFK [Y5T] | 0.987
TAPFYPPAYQIQVVK [F14V] | 9.26
TAPFYPPAYQIQVFE [K15E] | 2.62
TAPFYPPAYQIQVWK [F14W] | 10.8
TAPFVPPAYQIQVFK [Y5V] | 0.776
TAPFYPPAYQIRVFK [Q12R] | 12.3
TVPFYPPAYQIQVFK [A2V] | 18.6
TAIFYPPAYQIQVFK [P3I] | 23.8

Other studies, line by line
Parent: PafA, mature enzyme, eGFP fusion (Elizabethkingia meningoseptica, UniProt Q9KJX5); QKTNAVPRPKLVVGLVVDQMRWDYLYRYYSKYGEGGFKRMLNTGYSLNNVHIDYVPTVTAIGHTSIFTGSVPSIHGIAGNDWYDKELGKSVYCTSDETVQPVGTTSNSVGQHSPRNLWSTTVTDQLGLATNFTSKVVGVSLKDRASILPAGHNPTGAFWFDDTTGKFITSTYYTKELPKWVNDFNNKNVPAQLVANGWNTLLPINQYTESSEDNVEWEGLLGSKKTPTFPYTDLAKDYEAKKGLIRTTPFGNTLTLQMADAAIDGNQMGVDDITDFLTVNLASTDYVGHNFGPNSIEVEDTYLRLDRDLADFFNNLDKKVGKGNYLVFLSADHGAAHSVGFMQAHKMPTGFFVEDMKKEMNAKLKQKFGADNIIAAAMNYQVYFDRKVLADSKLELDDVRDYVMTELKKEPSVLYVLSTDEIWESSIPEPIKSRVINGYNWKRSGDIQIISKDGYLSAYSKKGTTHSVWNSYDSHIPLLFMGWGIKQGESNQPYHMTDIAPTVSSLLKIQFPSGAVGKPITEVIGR
Variant | target | assay | test system | setting | how to read | measurement | result
Y172V | vanadate, free oxyanion | microfluidic competitive inhibition | in vitro, cell-free expressed | not given, derived from inhibition constants, unchanged parent 676 nM | lower = stronger binding | oxyanion analog dissociation constant | 5370 nM

Repeated from above (set 1):
Modification | mean fluorescence intensity
2'F-ANA at 3 4 5 7 8 10 12 13 15 | 52.2 a.u.
2'F-ANA at 4 5 6 8 11 13 14 | 56 a.u.
2'F-ANA at 1 4 5 8 10 12 | 50.8 a.u.
